Measured values collected from several papers.
Numbered parts are unrelated; each lists some results of a single study.

Set 1
Target: Centromere-binding protein 1, full length, His-tagged (CBF1, Saccharomyces cerevisiae, UniProt P17106, residues 1-351)
UniProt P17106, sequence (whole entry, looked up): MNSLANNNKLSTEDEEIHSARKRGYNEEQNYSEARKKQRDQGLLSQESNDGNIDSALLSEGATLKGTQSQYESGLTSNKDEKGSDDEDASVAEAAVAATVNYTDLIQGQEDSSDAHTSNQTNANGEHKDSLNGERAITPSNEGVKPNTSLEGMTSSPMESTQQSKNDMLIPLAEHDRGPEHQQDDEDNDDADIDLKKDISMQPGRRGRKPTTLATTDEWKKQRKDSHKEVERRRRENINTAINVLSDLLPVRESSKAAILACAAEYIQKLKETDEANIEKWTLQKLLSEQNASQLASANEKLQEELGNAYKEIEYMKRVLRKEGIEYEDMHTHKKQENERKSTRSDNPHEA
Method: competition protein-binding microarray
Molecule type: double-stranded DNA, one strand shown
Medium: in vitro
Concentration: 2 µM
Notes: whole 60-bp probe, lowest competitor level
Added: Pho4 competitor, 0.05 µM
Reading: higher = stronger binding
The fluorescence intensity of `CACCAGCCGCCATTGAACGTGCAAACAGGCACCTGTGTCTTGATTCGCTTGACGCTGCTG` is reported as 64.7 a.u.
For `TTTTCAATCGTTGGCTACGTGCGGACACTTGTTTTGGTCTTGATTCGCTTGACGCTGCTG`, the fluorescence intensity was 236 a.u.
For `ATCGTAAATAAAACACACGTGCTTTCCCTACCACTTGTCTTGATTCGCTTGACGCTGCTG`, the fluorescence intensity was 1970 a.u.

Set 2
Target: Sal-like protein 4, full length isoform A (SALL4, Homo sapiens, UniProt Q9UJQ4, residues 1-1053)
UniProt Q9UJQ4, sequence (whole entry, looked up): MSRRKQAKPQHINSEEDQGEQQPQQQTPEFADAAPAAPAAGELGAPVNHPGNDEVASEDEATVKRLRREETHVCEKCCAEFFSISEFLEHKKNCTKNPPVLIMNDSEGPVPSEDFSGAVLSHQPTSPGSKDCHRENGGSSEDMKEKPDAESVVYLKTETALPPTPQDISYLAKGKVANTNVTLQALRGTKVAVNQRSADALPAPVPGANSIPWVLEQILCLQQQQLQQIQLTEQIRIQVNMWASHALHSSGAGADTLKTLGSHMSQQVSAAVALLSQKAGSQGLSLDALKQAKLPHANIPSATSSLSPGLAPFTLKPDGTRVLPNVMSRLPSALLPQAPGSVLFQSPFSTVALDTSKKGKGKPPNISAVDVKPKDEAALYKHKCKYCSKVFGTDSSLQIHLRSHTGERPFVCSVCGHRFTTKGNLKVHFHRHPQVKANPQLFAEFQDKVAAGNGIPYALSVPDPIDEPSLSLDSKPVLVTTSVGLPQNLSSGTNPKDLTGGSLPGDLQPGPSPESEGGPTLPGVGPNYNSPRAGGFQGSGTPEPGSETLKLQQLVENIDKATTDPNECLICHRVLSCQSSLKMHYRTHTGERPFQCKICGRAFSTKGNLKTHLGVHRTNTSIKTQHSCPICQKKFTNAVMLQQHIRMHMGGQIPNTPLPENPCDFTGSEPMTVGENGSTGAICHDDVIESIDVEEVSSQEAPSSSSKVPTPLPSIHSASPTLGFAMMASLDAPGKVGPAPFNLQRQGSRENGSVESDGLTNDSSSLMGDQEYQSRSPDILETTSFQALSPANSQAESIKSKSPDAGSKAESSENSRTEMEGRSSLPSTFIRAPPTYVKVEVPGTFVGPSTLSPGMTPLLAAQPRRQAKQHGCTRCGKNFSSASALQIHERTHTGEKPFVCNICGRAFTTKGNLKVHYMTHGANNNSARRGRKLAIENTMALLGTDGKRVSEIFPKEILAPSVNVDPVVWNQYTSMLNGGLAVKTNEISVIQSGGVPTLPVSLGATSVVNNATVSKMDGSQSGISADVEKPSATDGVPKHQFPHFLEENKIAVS
Method: universal PBM
Molecule type: double-stranded DNA, one strand shown
Medium: in vitro
Concentration: 600 nM
Notes: 8-mer, flanks averaged, mean of replicates
Reading: higher = stronger binding
The E-score of `CCCAGGTA` is reported as -0.0759.
`CGCTGCAC` has an E-score of -0.275.
The E-score of `GCGCCCCA` is reported as -0.387.
`ACGTGACT` gave an E-score of 0.0154.
With `CATCATTA` the E-score was 0.291.

Set 3
Target: Histone acetyltransferase KAT6A, both winged helices, GST fusion (KAT6A, Homo sapiens, UniProt Q92794, residues 1-181)
Method: protein binding microarray
Molecule type: double-stranded DNA, one strand shown
Medium: in vitro
Concentration: not given
Notes: 8-mer, flanks averaged, mean of 2 arrays, mostly near background
Baseline: not given
Reading: higher = stronger binding
Residues (chain): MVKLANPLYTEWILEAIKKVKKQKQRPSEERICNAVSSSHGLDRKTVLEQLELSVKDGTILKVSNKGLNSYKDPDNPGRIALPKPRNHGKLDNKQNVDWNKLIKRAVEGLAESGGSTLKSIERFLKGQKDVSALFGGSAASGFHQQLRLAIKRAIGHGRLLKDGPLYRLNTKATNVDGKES
With `TAGATTAA` the E-score was -0.0266.
With `ACATCGAT` the E-score was -0.106.
The E-score of `ATTGTTTA` is reported as -0.147.

Other studies, line by line
For `PhoQ, residues 284 288 289 292 302 303 SSCCRF`, the fold induction was 12.5 (PhoP, residues 12 14 15 18 19 IQSYL (Escherichia coli, UniProt P23836); Sort-seq, item: YFP reporter; E. coli; PhoQ-PhoP variant library, added: 10 µM Mg2+; baseline: high Mg2+ state, higher = stronger signaling).

Excerpt of the above (other studies, line by line):
For `PhoQ, residues 284 288 289 292 302 303 SSCCRF`, the fold induction was 12.5 (PhoP, residues 12 14 15 18 19 IQSYL (Escherichia coli, UniProt P23836); Sort-seq, item: YFP reporter; E. coli; PhoQ-PhoP variant library, added: 10 µM Mg2+; baseline: high Mg2+ state, higher = stronger signaling).
